# Experimental data gathered from unrelated publications.
# By UniProt entry, the sequences of proteins in these tests, tags left out.
# UniProt P35372, whole entry: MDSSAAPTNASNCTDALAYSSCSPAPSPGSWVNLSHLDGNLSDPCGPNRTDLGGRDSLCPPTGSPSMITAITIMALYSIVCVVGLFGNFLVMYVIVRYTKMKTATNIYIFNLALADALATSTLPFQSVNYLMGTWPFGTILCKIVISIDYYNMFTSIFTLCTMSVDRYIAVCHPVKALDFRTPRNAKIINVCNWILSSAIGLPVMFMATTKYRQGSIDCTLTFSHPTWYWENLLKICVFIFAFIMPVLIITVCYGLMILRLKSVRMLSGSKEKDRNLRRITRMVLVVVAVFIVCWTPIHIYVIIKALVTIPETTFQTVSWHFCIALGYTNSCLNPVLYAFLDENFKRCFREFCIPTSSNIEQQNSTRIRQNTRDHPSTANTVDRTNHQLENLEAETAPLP
# Each line is one published result; not all experiments were run side by side. ± gives the spread as reported.
# Target: Mu-type opioid receptor (OPRM1, Homo sapiens, UniProt P35372)
Structure (SMILES),test,test system,setting,quantity,value
C=C(C)[C@H]1CCC(C)=C[C@@H]1c1c(O)cc(CC)cc1O,"cAMP level, antagonist",HEK293 expressing human µ-opioid receptor,added: fentanyl 500 pM (EC95),IC50,6500 nM
CCC1C(=O)N(C2CCN(C(C)CC(c3ccccc3)c3ccccc3)CC2)c2ccccc21 (centres unmarked),radioligand displacement,,added: [3H]DAMGO,Ki,100 ± 4.17 nM
CCCCCc1cc(O)c([C@@H]2C[C@@H](C)CC[C@H]2C(C)C)c(O)c1,"cAMP level, antagonist",HEK293 expressing human µ-opioid receptor,added: fentanyl 500 pM (EC95),IC50,1400 nM
C=CCN1C[C@H]2CC[C@@H](C1)N2c1cccc(O)c1,"cAMP, antagonist",,"human receptor, added: fentanyl EC90",IC50,> 10000 nM
CCC1C(=O)N(C2CCN([C@H]3CC[C@@H]4CCCc5cccc3c54)CC2)c2ccccc21 (relative stereo),radioligand displacement,,added: [3H]DAMGO,Ki,8.19 ± 0.16 nM
C=C[C@H]1[C@H]2CCC[C@]1(c1cccc(O)c1)CCN2CCc1ccc([N+](=O)[O-])cc1,"forskolin-induced cAMP, antagonist",,added: fentanyl at EC90,IC50,9.93 ± 3 nM
C=C(C)[C@@H]1CCC(C)=C[C@H]1c1c(O)cc(CC(C)C)cc1O,"cAMP level, antagonist",HEK293 expressing human µ-opioid receptor,added: fentanyl 500 pM (EC95),IC50,242 nM
CCC1C(=O)N(C2CCN(CCCCc3ccc(-c4ccccc4)cc3)CC2)c2ccccc21 (centres unmarked),radioligand displacement,,added: [3H]DAMGO,Ki,168 ± 33 nM
CCCCCc1cc(O)c([C@@H]2C=C(C)CC[C@H]2C(C)C)c(O)c1,"cAMP level, antagonist",HEK293 expressing human µ-opioid receptor,added: fentanyl 500 pM (EC95),IC50,21 nM
O=C1Cc2ccccc2N1C1CCN([C@@H]2CC[C@@H]3CCCc4cccc2c43)CC1,radioligand displacement,,added: [3H]DAMGO,Ki,30.3 ± 6.55 nM
C=C[C@@H]1[C@H]2CCC[C@]1(c1cccc(O)c1)CCN2C,"forskolin-induced cAMP, antagonist",,added: fentanyl at EC90,IC50,> 10000 nM
C=C(I)[C@@H]1CC[C@@]2(C)C[C@@H]1c1c(O)cc(CCCCC)cc1O2,"cAMP level, antagonist",HEK293 expressing human µ-opioid receptor,added: fentanyl 500 pM (EC95),IC50,556 nM
Oc1cccc(N2C[C@H]3CC[C@@H](C2)N3CCCc2ccccc2)c1,"cAMP, antagonist",,"human receptor, added: fentanyl EC90",IC50,> 10000 nM
CCC1C(=O)N(C2CCN(Cc3cccc4[nH]ccc34)CC2)c2ccccc21 (centres unmarked),radioligand displacement,,added: [3H]DAMGO,Ki,10.6 ± 2.55 nM
C[C@H]1CN(CCCc2ccccc2)CCN1c1cccc(O)c1,"cAMP, antagonist",,"human receptor, added: fentanyl EC90",IC50,24.9 ± 4.04 nM
N=C(N)NCC(=O)NCC1(Nc2cccc3ccccc23)CCN(Cc2ccccc2)CC1,binding,HEK293 membranes,added: [3H]DAMGO,Ki,688 ± 60 nM
CCC1C(=O)N(C2CCN(C/C=C/c3ccccc3)CC2)c2ccccc21 (centres unmarked),agonist,cell membranes,,EC50,2110 ± 135 nM
C=C[C@H]1[C@H]2CCC[C@]1(c1cccc(O)c1)CCN2CCc1ccc(O)cc1,"forskolin-induced cAMP, antagonist",,added: fentanyl at EC90,IC50,273 ± 123 nM
CCC1C(=O)N(C2CCN(C3CCc4ccccc4C3)CC2)c2ccccc21 (centres unmarked),agonist,cell membranes,,EC50,22.3 ± 0.1 nM
COc1cc(NC2(CNC(=O)CNC(=N)N)CCN(Cc3ccccc3)CC2)cc(OC)c1,binding,HEK293 membranes,added: [3H]DAMGO,Ki,> 5000 nM
C=C(C)[C@@H]1CCC(C)=C[C@H]1c1c(O)cc(CCC)cc1O,"cAMP level, antagonist",HEK293 expressing human µ-opioid receptor,added: fentanyl 500 pM (EC95),IC50,556 nM
Oc1cccc(N2[C@@H]3CC[C@H]2CN(CC2CC2)C3)c1,"cAMP, antagonist",,"human receptor, added: fentanyl EC90",IC50,> 10000 nM
N=C(N)NCC(=O)NCC1(Nc2ccccc2)CCN(Cc2ccccc2)CC1,binding,HEK293 membranes,added: [3H]DAMGO,Ki,2020 ± 170 nM

# A few entries again:
Structure (SMILES),test,test system,setting,quantity,value
COc1cc(NC2(CNC(=O)CNC(=N)N)CCN(Cc3ccccc3)CC2)cc(OC)c1,binding,HEK293 membranes,added: [3H]DAMGO,Ki,> 5000 nM
C=C(C)[C@@H]1CCC(C)=C[C@H]1c1c(O)cc(CCC)cc1O,"cAMP level, antagonist",HEK293 expressing human µ-opioid receptor,added: fentanyl 500 pM (EC95),IC50,556 nM
